Experimental data of several laboratories.
Protocols differ between the studies behind these lines. “And” joins repeats or separate records; there may be more than shown. ± gives the spread as reported.
HCRTR2 del254-292/I293E/K294R/L160H/M161K/Q254E: Orexin receptor type 2 (HCRTR2, Homo sapiens, UniProt O43614, del254-292/I293E/K294R/L160H/M161K/Q254E)
Sequence of UniProt O43614 (whole entry, unmodified, looked up): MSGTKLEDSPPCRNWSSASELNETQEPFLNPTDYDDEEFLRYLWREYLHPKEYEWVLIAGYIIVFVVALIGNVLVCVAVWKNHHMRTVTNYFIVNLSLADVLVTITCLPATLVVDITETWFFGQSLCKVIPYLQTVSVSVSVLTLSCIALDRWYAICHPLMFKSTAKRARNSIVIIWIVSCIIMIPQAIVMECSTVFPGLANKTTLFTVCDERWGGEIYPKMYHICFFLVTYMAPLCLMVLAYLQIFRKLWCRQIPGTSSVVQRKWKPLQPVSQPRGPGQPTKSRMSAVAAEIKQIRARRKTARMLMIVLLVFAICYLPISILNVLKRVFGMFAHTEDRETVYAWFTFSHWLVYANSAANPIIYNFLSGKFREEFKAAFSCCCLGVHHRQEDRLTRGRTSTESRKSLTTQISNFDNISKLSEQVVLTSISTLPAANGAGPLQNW
Sequence of UniProt Q13283 (whole entry, looked up): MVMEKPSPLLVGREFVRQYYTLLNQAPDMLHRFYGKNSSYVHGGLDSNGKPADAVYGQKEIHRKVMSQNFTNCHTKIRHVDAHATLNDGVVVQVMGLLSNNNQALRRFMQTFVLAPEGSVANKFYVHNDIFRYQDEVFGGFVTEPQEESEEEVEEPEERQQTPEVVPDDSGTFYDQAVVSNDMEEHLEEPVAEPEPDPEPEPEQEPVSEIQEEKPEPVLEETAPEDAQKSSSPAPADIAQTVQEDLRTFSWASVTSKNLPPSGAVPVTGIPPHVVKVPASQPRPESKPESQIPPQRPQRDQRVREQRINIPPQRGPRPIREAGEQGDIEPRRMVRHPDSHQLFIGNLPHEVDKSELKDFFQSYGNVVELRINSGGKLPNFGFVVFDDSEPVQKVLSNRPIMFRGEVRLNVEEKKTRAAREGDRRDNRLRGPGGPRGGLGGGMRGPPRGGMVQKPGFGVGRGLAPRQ
Sequence of UniProt Q6DWJ6 (whole entry, looked up): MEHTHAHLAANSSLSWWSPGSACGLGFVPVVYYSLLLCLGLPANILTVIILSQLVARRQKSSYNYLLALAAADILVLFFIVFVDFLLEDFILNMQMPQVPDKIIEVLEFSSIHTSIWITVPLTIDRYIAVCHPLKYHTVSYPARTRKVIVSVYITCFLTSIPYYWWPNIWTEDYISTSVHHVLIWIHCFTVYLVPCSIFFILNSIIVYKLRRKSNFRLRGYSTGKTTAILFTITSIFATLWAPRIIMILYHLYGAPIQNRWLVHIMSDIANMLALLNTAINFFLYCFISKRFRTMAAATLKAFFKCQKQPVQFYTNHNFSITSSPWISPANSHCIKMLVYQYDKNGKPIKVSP
Sequence of UniProt P09616 (whole entry, looked up): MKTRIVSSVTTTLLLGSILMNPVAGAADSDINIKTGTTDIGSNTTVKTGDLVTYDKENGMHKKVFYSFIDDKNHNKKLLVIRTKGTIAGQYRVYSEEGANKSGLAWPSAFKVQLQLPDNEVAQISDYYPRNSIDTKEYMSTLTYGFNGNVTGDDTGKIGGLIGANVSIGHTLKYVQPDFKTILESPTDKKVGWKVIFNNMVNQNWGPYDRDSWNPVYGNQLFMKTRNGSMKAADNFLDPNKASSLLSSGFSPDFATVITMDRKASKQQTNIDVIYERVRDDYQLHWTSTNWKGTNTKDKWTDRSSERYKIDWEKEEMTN

With `SSASSEDYIIILPECFDTSRPLGDS (NBR1 725-749 (UniProt Q14596); FITC label)` the Kd was 1790 ± 170 nM (MAP1LC3A (Homo sapiens, UniProt Q9H492); FP; peptide).
With `aspterric acid` the inhibition was 99.2% (root length; Arabidopsis thaliana Col-0 seeds; 12.5 µg/mL, 7 days, dark).
For `insulin human`, the fold change was 1.35 (refers to: TGM2 mRNA; uninfected mouse, brain; i.p., dose not given; relative to: PBS).
With `brain natriuretic peptide` the dwell time was 0.38 ± 0.11 ms (hly (Staphylococcus aureus, UniProt P09616); nanopore sensing; fetal bovine serum, NaCl 1 M; 5 µM, pH 7.4, +100 mV).
For `YLPTITGVGHLWHPLC (engineered peptide)`, the Kd was 852 ± 14 nM (VPS35/VPS26A/VPS29 retromer complex (Homo sapiens); ITC; peptide).
The Kd of `PRPRPRPRPRPRPRPRPRPRPRPRPRPRPRPRPRPRPRPRPRPRPRPRPRPRPRPRPRPR (poly-PR 30 repeats)` is reported as 29.8 nM (G3BP1 (UniProt Q13283); BLI; peptide).
For `Histone H3.1 fragment (Homo sapiens) (sequence not shown)`, the Kd was 8710 ± 940 nM (WDR5 fragment (Homo sapiens); ITC).
With `ACAWCLRGTICCSG (MP5.4.3; Cys2-Cys12, Cys5-Cys11 disulfides)` the Ki was 0.4 nM (CTRB1 α-chymotrypsin (Bos taurus, UniProt P00766); steady-state kinetics; peptide).
For `DFMTWF (designed peptide)`, the Ki was 363 ± 152 nM (NHERF2 142-254 (Homo sapiens, UniProt Q15599-1); competition with labeled peptide, fluorescence polarisation; peptide).
`NLFDDNIDIFADLT (WASHC2A 1261-1274 (Homo sapiens))` gave a Kd of 33500 ± 1480 nM (SNX27 K496D (Homo sapiens); ITC; peptide).
The ΔF/F0 of `Neuromedin B` is reported as -0.63 and 0.771 and -0.678 and 0.741 and -1.67 and -0.654 and -3.72 and 1.02 (HCRTR2 del254-292/I293E/K294R/L160H/M161K/Q254E; sensor fluorescence, fluorescence imaging; HEK293T; concentration not given, unit not given; relative to: baseline).
With `YGGFLRKYP (β-neoendorphin mature peptide (UniProt P01213))` the Ki was 1950 nM (GPR139 (Homo sapiens, UniProt Q6DWJ6); radioligand binding; peptide).
The ΔF/F0 of `melanin-concentrating hormone` is reported as 0.31 and 0.846 and 2.07 and 0.894 and 1.88 and -4.37 and -9.46 and 4.47 (HCRTR2 del254-292/I293E/K294R/L160H/M161K/Q254E; sensor fluorescence, fluorescence imaging; HEK293T; concentration not given, unit not given; relative to: baseline).
For `DLDSDDEY (TELO2 488-494 (Homo sapiens); pS491)`, the Kd was 90000 nM (PIH1D1 51-180 K113A (Homo sapiens, UniProt Q9NWS0); ITC; peptide).
The Kd of `GRGRGRGRGRGRGRGRGRGRGRGRGRGRGRGRGRGRGRGRGRGRGRGRGRGRGRGRGRGR (poly-GR 30 repeats)` is reported as 0.57 nM (G3BP1 143-226 (Homo sapiens, UniProt Q13283); BLI; peptide).

A few entries again:
With `SSASSEDYIIILPECFDTSRPLGDS (NBR1 725-749 (UniProt Q14596); FITC label)` the Kd was 1790 ± 170 nM (MAP1LC3A (Homo sapiens, UniProt Q9H492); FP; peptide).
The Kd of `PRPRPRPRPRPRPRPRPRPRPRPRPRPRPRPRPRPRPRPRPRPRPRPRPRPRPRPRPRPR (poly-PR 30 repeats)` is reported as 29.8 nM (G3BP1 (UniProt Q13283); BLI; peptide).
